{"data": "Published values collected from several papers", "note": "A part holds a random share of what one study measured. Changes are numbered by the printed parent chain."}
{"data": "Study 1", "target": "Sal-like protein 4, full length isoform B (SALL4, Homo sapiens, UniProt Q9UJQ4-2, residues 1-616)", "method": "universal PBM", "molecule type": "double-stranded DNA, one strand shown", "matrix": "in vitro", "concentration": "not given", "setting": "8-mer, flanks averaged, mean of replicates", "reading": "higher = stronger binding", "Target sequence (chain)": "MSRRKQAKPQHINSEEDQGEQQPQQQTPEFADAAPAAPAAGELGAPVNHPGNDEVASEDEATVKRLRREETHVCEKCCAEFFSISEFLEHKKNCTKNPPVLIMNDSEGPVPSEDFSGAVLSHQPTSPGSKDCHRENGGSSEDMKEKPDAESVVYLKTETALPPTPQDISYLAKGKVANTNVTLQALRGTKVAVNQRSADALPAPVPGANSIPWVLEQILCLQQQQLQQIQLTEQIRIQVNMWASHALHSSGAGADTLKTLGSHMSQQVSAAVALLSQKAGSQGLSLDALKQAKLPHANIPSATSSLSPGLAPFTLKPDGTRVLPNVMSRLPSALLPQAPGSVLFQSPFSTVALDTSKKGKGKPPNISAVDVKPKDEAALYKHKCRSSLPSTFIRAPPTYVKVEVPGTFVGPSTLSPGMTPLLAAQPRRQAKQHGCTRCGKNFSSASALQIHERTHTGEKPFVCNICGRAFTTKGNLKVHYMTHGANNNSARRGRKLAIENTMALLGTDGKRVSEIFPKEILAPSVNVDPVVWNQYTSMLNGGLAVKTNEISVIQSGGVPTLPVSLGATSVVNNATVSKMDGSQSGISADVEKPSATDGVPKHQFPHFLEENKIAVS"}
{"Sequence": "GCAAGTCC", "E-score": -0.21}
{"Sequence": "GCTGGTCC", "E-score": -0.223}
{"Sequence": "ATTTCGAC", "E-score": 0.00219}
{"Sequence": "GTCATAGA", "E-score": 0.101}
{"Sequence": "ACCACATA", "E-score": 0.195}
{"Sequence": "CAGCGGCA", "E-score": -0.262}
{"Sequence": "ATGTAAAG", "E-score": 0.155}
{"Sequence": "AATAGTGC", "E-score": 0.0792}
{"Sequence": "ATTCTGCG", "E-score": -0.0677}
{"Sequence": "AGTCTAAC", "E-score": -0.0673}
{"Sequence": "ACGGTCCC", "E-score": -0.337}
{"Sequence": "GGCAGGAC", "E-score": -0.256}
{"Sequence": "CAAAGGTG", "E-score": -0.0319}
{"Sequence": "TATCCGAA", "E-score": 0.0835}
{"Sequence": "GAGACAAC", "E-score": -0.13}
{"Sequence": "CCCCGCGA", "E-score": -0.292}
{"data": "Study 2", "target": "XBP1, bZIP domain (human)", "method": "DHFR protein complementation", "matrix": "yeast", "setting": "single substitutions, most at no-binding floor", "baseline": "wild-type JUN-FOS pair", "reading": "higher = stronger binding", "parent": "JUN, bZIP domain (human); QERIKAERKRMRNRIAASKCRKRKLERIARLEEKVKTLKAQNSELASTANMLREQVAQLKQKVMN; partner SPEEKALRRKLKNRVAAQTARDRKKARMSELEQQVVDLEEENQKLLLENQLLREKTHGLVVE"}
{"Change": "E33D", "binding fitness [natural log]": -0.92}
{"Change": "R30I", "binding fitness [natural log]": -0.498}
{"Change": "L45H", "binding fitness [natural log]": -1.42}
{"Change": "V35M", "binding fitness [natural log]": -1.43}
{"Change": "E32R", "binding fitness [natural log]": -1.23}
{"Change": "A40V", "binding fitness [natural log]": -1.04}
{"Change": "E54C", "binding fitness [natural log]": -1.49}
{"Change": "I28L", "binding fitness [natural log]": -0.702}
{"Change": "S47G", "binding fitness [natural log]": -0.981}
{"Change": "R30Q", "binding fitness [natural log]": -0.227}
{"Change": "E33S", "binding fitness [natural log]": -1.06}
{"Change": "A40K", "binding fitness [natural log]": -0.473}
{"Change": "E33W", "binding fitness [natural log]": -1.3}
{"Change": "V35Q", "binding fitness [natural log]": -1.54}
{"Change": "L59W", "binding fitness [natural log]": -1.39}
{"Change": "T37W", "binding fitness [natural log]": -0.662}
{"Change": "E44T", "binding fitness [natural log]": -1.17}
{"Change": "E32M", "binding fitness [natural log]": -1.32}
{"Change": "S43A", "binding fitness [natural log]": -0.233}
{"data": "Study 3", "target": "CCND3, cyclin fold, Cln2 fusion (human)", "method": "yeast growth competition, sequencing", "matrix": "yeast", "setting": "weak parent motif", "baseline": "not given", "reading": "higher = stronger binding", "parent": "RP1L1 docking peptide (human); TLGLGPLSFTLED; partner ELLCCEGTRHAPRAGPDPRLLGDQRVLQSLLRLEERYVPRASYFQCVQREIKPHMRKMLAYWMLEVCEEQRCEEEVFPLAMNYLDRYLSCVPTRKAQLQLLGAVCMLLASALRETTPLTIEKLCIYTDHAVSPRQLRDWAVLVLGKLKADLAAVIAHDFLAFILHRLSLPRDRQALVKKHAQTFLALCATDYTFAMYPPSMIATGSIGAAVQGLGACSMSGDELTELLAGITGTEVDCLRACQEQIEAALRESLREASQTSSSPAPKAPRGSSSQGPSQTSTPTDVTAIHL"}
{"Change": "TAGLGPLSFTLED [L2A]", "normalised enrichment score": -0.423}
{"Change": "TLALGPLSFTLED [G3A]", "normalised enrichment score": -0.532}
{"Change": "TLGLGPLSFTLEA [D13A]", "normalised enrichment score": -0.442}
{"Change": "TLGLGPLSFTAED [L11A]", "normalised enrichment score": -0.254}
{"Change": "ALGLGPLSFTLED [T1A]", "normalised enrichment score": -0.382}
{"Change": "TLGLAPLSFTLED [G5A]", "normalised enrichment score": -0.514}
{"Change": "TLGLGPLSATLED [F9A]", "normalised enrichment score": -0.142}
{"data": "Study 4", "target": "Centromere-binding protein 1, full length, N-terminal tag (CBF1, Saccharomyces cerevisiae, UniProt P17106, residues 1-351)", "method": "protein-binding microarray", "molecule type": "double-stranded DNA, one strand shown", "matrix": "in vitro", "concentration": "0.8 µM", "setting": "whole 60-bp probe, no competitor", "reading": "higher = stronger binding", "UniProt P17106, sequence (whole entry, looked up)": "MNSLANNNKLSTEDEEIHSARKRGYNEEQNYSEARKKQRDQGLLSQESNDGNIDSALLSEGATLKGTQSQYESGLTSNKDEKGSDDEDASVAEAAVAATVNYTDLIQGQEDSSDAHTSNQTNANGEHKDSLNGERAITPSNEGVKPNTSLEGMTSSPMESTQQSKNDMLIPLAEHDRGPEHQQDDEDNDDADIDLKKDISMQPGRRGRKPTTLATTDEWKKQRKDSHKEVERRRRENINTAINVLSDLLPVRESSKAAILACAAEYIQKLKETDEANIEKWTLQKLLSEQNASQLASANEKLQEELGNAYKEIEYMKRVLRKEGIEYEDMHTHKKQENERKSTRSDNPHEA"}
{"Sequence": "GAACAGTTATACTATCACGTTGCACCTGGGGCCTAGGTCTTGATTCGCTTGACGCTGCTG", "fluorescence intensity [a.u.]": 1250}
{"Sequence": "CTATCGATAATTTTTTTAGTCACAGGGTCCGTCTTCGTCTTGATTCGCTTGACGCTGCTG", "fluorescence intensity [a.u.]": 1340}
{"Sequence": "GAAAAAATATCCTGTGATGTTATTTTATTTTTTTAGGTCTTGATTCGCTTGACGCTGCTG", "fluorescence intensity [a.u.]": 631}
{"Sequence": "CTAGTACTACCGAATCACCAGGTGAATATCTCTTTCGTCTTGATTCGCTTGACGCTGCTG", "fluorescence intensity [a.u.]": 568}
{"Sequence": "CTAACCTTTGCATGTCACGTGAACCAACAGAACTTCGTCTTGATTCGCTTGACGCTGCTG", "fluorescence intensity [a.u.]": 22700}
{"Sequence": "CTAACCAGATTCGATCATCAGAGCTTAAAATTGTTCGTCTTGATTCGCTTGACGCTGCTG", "fluorescence intensity [a.u.]": 509}
{"Sequence": "GAACTGAAGCACATTCTCATGATGGAAACGAAGTAGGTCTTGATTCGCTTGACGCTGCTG", "fluorescence intensity [a.u.]": 607}
{"Sequence": "GAATTATTTACAATTTTCGTGATTCTGTGTAAATAGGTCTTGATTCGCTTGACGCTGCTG", "fluorescence intensity [a.u.]": 538}
{"Sequence": "CTAGACTAACTTCATGACACAACCACTGTTGTATTCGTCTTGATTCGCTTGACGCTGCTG", "fluorescence intensity [a.u.]": 518}
{"Sequence": "GAACTGACACTGCCGCACGCTGCATTATGTGCCTAGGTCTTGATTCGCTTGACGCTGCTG", "fluorescence intensity [a.u.]": 542}
{"Sequence": "CTAATATAAATAAATCACGTCAAACGGTGCGTCTTCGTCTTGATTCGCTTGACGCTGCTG", "fluorescence intensity [a.u.]": 587}
{"Sequence": "CTAATAATATAGTTACATGTGATGAATGTATGGTTCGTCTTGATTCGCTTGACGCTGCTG", "fluorescence intensity [a.u.]": 1650}
{"Sequence": "GAAGGTTATCCATGCCTCGTGTTGCTGCCAAGATAGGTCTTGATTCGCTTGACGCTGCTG", "fluorescence intensity [a.u.]": 608}
{"Sequence": "GAAAGAAATGACGATAAGGTGAGGAGGATAAAATAGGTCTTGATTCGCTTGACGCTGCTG", "fluorescence intensity [a.u.]": 542}
{"Sequence": "GAATACTGCGGTATTGAGCTGATGGAAATATAATAGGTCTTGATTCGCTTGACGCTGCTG", "fluorescence intensity [a.u.]": 523}
{"Sequence": "GAATCATAAGAGAGGAGCGTGATCTGTAATTCCTAGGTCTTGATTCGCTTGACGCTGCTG", "fluorescence intensity [a.u.]": 1490}
{"Sequence": "GAATGAATAAATAAAATCGTGACTAATACGTCCTAGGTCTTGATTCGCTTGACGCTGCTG", "fluorescence intensity [a.u.]": 865}
{"Sequence": "GAAAAAGAATATAGTGACACCAAACCATAGAACTAGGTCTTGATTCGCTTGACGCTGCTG", "fluorescence intensity [a.u.]": 561}
{"Sequence": "GAACTTGTTATCTTGGTGATGATCGCACAAGTATAGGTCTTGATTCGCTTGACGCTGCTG", "fluorescence intensity [a.u.]": 552}
{"data": "Study 5", "target": "ABI1, truncated, D143A, DHFR fusion (Arabidopsis thaliana)", "method": "DHFR PCA, deep sequencing", "matrix": "yeast", "setting": "methotrexate growth selection, single substitutions", "added": "(+)-ABA 1.4 µM", "baseline": "wild-type fitted maximum", "reading": "higher = stronger binding", "parent": "PYL1, truncated, DHFR fusion (Arabidopsis thaliana); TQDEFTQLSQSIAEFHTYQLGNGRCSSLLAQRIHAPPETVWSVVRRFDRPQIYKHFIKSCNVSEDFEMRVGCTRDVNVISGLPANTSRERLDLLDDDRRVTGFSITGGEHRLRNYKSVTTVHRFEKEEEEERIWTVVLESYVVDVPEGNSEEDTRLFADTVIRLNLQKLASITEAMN; partner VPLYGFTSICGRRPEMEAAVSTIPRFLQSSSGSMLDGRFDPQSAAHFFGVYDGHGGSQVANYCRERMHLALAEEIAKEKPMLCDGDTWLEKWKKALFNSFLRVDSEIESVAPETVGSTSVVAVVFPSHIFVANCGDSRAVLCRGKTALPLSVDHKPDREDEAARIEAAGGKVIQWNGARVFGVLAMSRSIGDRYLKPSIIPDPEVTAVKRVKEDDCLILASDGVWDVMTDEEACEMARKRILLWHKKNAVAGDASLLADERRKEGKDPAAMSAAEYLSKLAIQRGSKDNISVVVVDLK"}
{"Change": "L29P", "relative binding score [%]": -6.72}
{"Change": "E174V", "relative binding score [%]": 10.6}
{"Change": "R123F", "relative binding score [%]": 1.14}
{"Change": "Y53E", "relative binding score [%]": -2}
{"Change": "A84Q", "relative binding score [%]": 2.21}
{"Change": "A158I", "relative binding score [%]": 66}
{"Change": "E4Q", "relative binding score [%]": 46.7}
{"Change": "N61H", "relative binding score [%]": 72}
{"Change": "H110N", "relative binding score [%]": 68.1}
{"Change": "V143F", "relative binding score [%]": -9.58}
{"Change": "V76L", "relative binding score [%]": 34.8}
{"Change": "R111Q", "relative binding score [%]": 1.23}
{"Change": "L164W", "relative binding score [%]": 32.6}
{"Change": "R32H", "relative binding score [%]": 46.5}
{"Change": "S104K", "relative binding score [%]": -10.8}
{"Change": "F47A", "relative binding score [%]": -0.404}
{"Change": "G102V", "relative binding score [%]": -1.93}
{"Change": "S11C", "relative binding score [%]": 69}
{"Change": "F47H", "relative binding score [%]": -4.35}
{"Change": "E127P", "relative binding score [%]": 75.2}
{"Change": "K126L", "relative binding score [%]": 61.5}
{"Change": "R132P", "relative binding score [%]": 77.3}
{"Change": "N177I", "relative binding score [%]": 40.7}
